Experimental data of several laboratories.
Lines come from different studies, so protocols differ. Values joined by “and” are separate records of one study, mostly repeats; a detail may differ. ± marks the error that the study gave.

SMILES = O=S(=O)(Nc1ccccc1)c1ccc(NC(=S)Nc2ccccc2)cc1; test system = mouse, male, blood; setting = oral, 80 mg/kg daily, 14 days; quantity = mean corpuscular haemoglobin concentration; value = 31.4 g/dL
SMILES = CC(C)CC(=O)OC[C@H]1O[C@@](C#N)(c2ccc3c(N)ncnn23)[C@H](O)[C@@H]1O; test system = dog whole blood; setting = 5 µM, 15 min; quantity = remaining compound; value = 63.5 ± 3.85%
SMILES = CN[C@H](CC(C)C)C(=O)N[C@H]1C(=O)N[C@@H](CC(N)=O)C(=O)N[C@H]2C(=O)N[C@H]3C(=O)N[C@H](C(=O)N[C@H](C(=O)O)c4cc(O)cc(O)c4-c4cc3ccc4O)[C@H](O)c3ccc(c(Cl)c3)Oc3cc2cc(c3O[C@@H]2O[C@H](CO)[C@@H](O)[C@H](O)[C@H]2O[C@H]2C[C@](C)(N)[C@H](O)[C@H](C)O2)Oc2ccc(cc2Cl)[C@H]1O; test system = female rat, serum; setting = intraperitoneal, 200 mg/kg, 7 h; quantity = AUC; value = 703 µg·h/mL
SMILES = CO[C@H]1C[C@@H]2CC[C@@H](C)[C@@](O)(O2)C(=O)C(=O)N2CCCC[C@H]2C(=O)O[C@H]([C@H](C)C[C@@H]2CC[C@@H](OC(=O)NCCOCCOCCOCCOCCOCCOCCOCCOCCC(=O)N3CCc4cc(Cn5nc(-c6ccc7oc(N)nc7c6)c6c(N)ncnc65)ccc4C3)[C@H](OC)C2)C[C@@H](O)[C@H](C)/C=C(\C)[C@@H](O)[C@@H](OC)C(=O)[C@H](C)C[C@H](C)/C=C/C=C/C=C/1C; test system = patients with advanced solid tumours; setting = intravenous, 12 mg weekly, any grade; quantity = maculopapular rash incidence; value = 16.7%
SMILES = O=C(O)CCCOc1ccc(F)cc1-c1cc(-c2ccccc2C(F)(F)F)n(-c2ccccc2)n1; test = item: AST; test system = Crl:CD(SD) rats, male, serum; setting = iv, 25 µg/kg, 14 days; quantity = serum enzyme activity; value = 79.9 ± 5.5 U/L
SMILES = CCc1ccc(CC/C=C/c2ccc3c(c2)C(=O)CC3)cc1; test system = Sprague-Dawley rat, male; setting = oral, 450 mg/kg/day, 14 days; quantity = Eosinophil percentage; value = 0.57%
SMILES = C#C[C@]1(CO)O[C@@H](n2cnc3c(N)nc(F)nc32)C[C@@H]1O; test system = monkey, plasma; setting = oral, 20 mg/kg/dose, 29 days; quantity = Cmax at NOAEL; value = 8.4 µM
SMILES = O=C(Nc1ccccc1)C1CCN(C(=O)Oc2cccnc2)CC1; test system = healthy women; setting = oral, 60 mg, 7 days; quantity = adverse event Lethargy; value = 28.6%
SMILES = O=C1O[C@H]2[C@@H]3OC(=O)c4cc(O)c(O)c(O)c4-c4c(O)c(O)c5oc(=O)c6c(c(O)c(O)c7oc(=O)c4c5c76)-c4c(cc(O)c(O)c4O)C(=O)OC[C@H]3OC(O)[C@@H]2OC(=O)c2cc(O)c(O)c(O)c2-c2c1cc(O)c(O)c2O (mixture of isomers); test = subacute oral toxicity; test system = BALB/c mice; setting = oral, 1000 mg/kg/day, 28 days; quantity = spleen weight; value = 0.079 g
SMILES = NC(=O)[C@H]1CCN(c2ncnc(N)c2F)C[C@@H]1N1CCC[C@@H](Nc2cc(Cl)cc(C(F)(F)F)c2)C1=O; test system = B-cell malignancy patients; setting = oral, 410 mg twice daily, dose; quantity = grade ≥3 bilirubin increase; value = 0%
SMILES = [O-][S+]1CCc2nc(N3CCC(c4ncc(Cl)cn4)CC3)nc(NC3(CO)CCC3)c21 (stereo not shown); test = item: abdominal distension; test system = healthy male subjects; setting = dose not given, multiple rising dose, total; quantity = subjects with adverse event; value = 0%
SMILES = C=CC(=O)N1CC[C@H](n2nc(C#Cc3cc(OC)cc(OC)c3)c3c(N)ncnc32)C1; test system = human patients, all; setting = oral, dose not given, QD regimen, adverse drug reaction; quantity = AST increased, any grade; value = 18.6%
SMILES = Cn1ncc(-c2nc(N[C@H]3CC[C@H](N)CC3)ncc2Cl)c1CC1CC1; test = phase I dose escalation; test system = human patients; setting = dose not given, grade 3-4 TEAE; how to read = baseline: patients; quantity = febrile neutropenia incidence; value = 10%
SMILES = [2H]C([2H])([18F])[C@]([2H])(N)C(=O)O; test = PET; test system = athymic nude mice, U-87 MG, tumor; setting = dose not given, 30 min post-injection; quantity = tissue uptake; value = 1.62 ± 0.09 %ID/cc
SMILES = Cc1ccc(F)c2cc(C(=O)N[C@@H]3CCC[C@H](N4CC[C@H](N(C)S(C)(=O)=O)C4)C3)[nH]c12; test system = CD1 mouse; setting = oral, 30 mg/kg; quantity = CL/F; value = 197 mL/min/kg
SMILES = COc1ncccc1-c1cnn2ccc(N3CCN(C(=O)OC(C)C)CC3)nc12; test system = mouse nerve ligation model, brain; setting = oral, 3 mg/kg, 30 min after last dose, repeat dosing day 1; quantity = drug concentration; value = 2.4 µM
SMILES = Cn1cc(-c2nc(N[C@@H]3CCCC[C@@H]3N)c(F)c3c2C(=O)NC3)cn1; test = item: any bleeding; test system = patients with relapsed or refractory AML; setting = oral, 80 mg twice daily; quantity = hemorrhagic adverse events; value = 100%
SMILES = CCCCCCCCCCCCCCCC(=O)N[C@@H](CCC(=O)NCCCC[C@H](NC(=O)[C@H](CC(=O)O)NC(=O)[C@H](CO)NC(=O)[C@@H](NC(=O)[C@H](Cc1ccccc1)NC(=O)[C@@H](NC(=O)CNC(=O)[C@H](CCC(N)=O)NC(=O)[C@H](CO)NC(=O)[C@@H](N)Cc1c[nH]cn1)[C@@H](C)O)[C@@H](C)O)C(=O)N[C@@H](CO)C(=O)N[C@@H](CCC(=O)O)C(=O)N[C@@H](Cc1ccc(O)cc1)C(=O)N[C@@H](CC(C)C)C(=O)N[C@@H](CC(=O)O)C(=O)N[C@@H](CO)C(=O)N[C@@H](CCC(=O)O)C(=O)N[C@@H](CCCNC(=N)N)C(=O)N[C@@H](C)C(=O)N[C@@H](CCCNC(=N)N)C(=O)N[C@@H](CC(=O)O)C(=O)N[C@@H](Cc1ccccc1)C(=O)N[C@H](C(=O)N[C@@H](C)C(=O)N[C@@H](Cc1c[nH]c2ccccc12)C(=O)N[C@@H](CC(C)C)C(=O)N[C@@H](CCC(=O)O)C(=O)N[C@@H](C)C(=O)NCC(=O)NCC(=O)O)C(C)C)C(=O)O; test = item: Flatulence; test system = humans CrCl 30 to 45 mL/min; setting = subcutaneous, 100 µg single dose; quantity = treatment-related adverse events; value = 9.1%
SMILES = CC(C)(C)c1cc(-n2nc3ccccc3n2)c(O)c(C(C)(C)C)c1; test = exposure assessment; test system = human, age 2-3 years, sunscreen; quantity = dermal uptake; value = 2.09 ng/kg body weight/day
SMILES = COc1ccnc(C(=O)N[C@H]2COC(=O)[C@H](Cc3ccccc3)[C@@H](OC(=O)C(C)C)[C@H](C)OC2=O)c1OCOC(=O)C(C)C; test system = field soil, loam; setting = normalised, UK; quantity = DT50; value = 8.55 days
SMILES = COc1cc(C(=O)NC2CCN(C)CC2)c(F)cc1Nc1ncc(C(F)(F)F)c(Oc2cccc3c2C(=O)N(C)C3)n1; test system = human patients, urine; setting = oral, 100 mg single dose, geometric mean; how to read = baseline: dose; quantity = fraction excreted in urine (0-48 h); value = 8.45%
SMILES = COc1cc2c(OC3CCOC3)c3c(c(-c4ccc5c(c4)OCO5)c2cc1OC)C(=O)OC3 (stereo not shown); test system = mouse; setting = oral; quantity = CL/F; value = 0.135 L/h
SMILES = O=C1Nc2cc3[nH]nc(-c4ccncc4)c3cc2CN1Cc1ccccc1; test = CTCAE v4.03; test system = human, relapsed or refractory advanced solid tumours; setting = intravenous, 0.9 mg/kg, pooled schedules; quantity = patients with rash; value = 0%
SMILES = CC(C)[C@@H]1NC(=O)CNC(=O)[C@H](CC(N)=O)NC(=O)[C@H](CCCNC(=N)N)NC(=O)[C@H](Cc2ccc(O)cc2)NC(=O)[C@H](C(C)C)NC(=O)[C@@H](NC(=O)[C@@H](NC(=O)[C@H](CC(N)=O)NC(=O)[C@H](Cc2c[nH]c3ccccc23)NC(=O)[C@H](C)NC(=O)[C@H](Cc2ccccc2)NC(=O)CN)C(C)C)CSSC[C@@H](C(=O)N[C@@H](Cc2cnc[nH]2)C(=O)N[C@@H](CCCNC(=N)N)C(=O)N[C@@H](CCCNC(=N)N)C(=O)N[C@@H](C)C(=O)N[C@@H](CC(N)=O)C(N)=O)NC(=O)[C@H](C(C)C)NC(=O)[C@H](CCCNC(=N)N)NC1=O; test system = ICR mice, blood; setting = intraperitoneal, 10 mg/kg, day 5; quantity = neutrophils; value = 18.1 ± 0.94%
SMILES = COc1cccc(Oc2ccccc2NC(=O)CNC(=O)c2cccc3ccccc23)c1; test system = esterase-deficient SCID mice, male; setting = oral, 40 mg/kg/day, 14 days, toxicity study; quantity = blood glucose; value = 269 mg/dL and 200 mg/dL and 172 mg/dL
SMILES = COc1cc2c(Oc3ccc4[nH]c(C)cc4c3F)ccnc2cc1OCC1(N)CC1; test system = paediatric recurrent refractory sarcoma; setting = 12 mg; quantity = grade 1 or 2 Anorexia; value = 18.2%
SMILES = Nc1ncnc2c1ncn2[C@@H]1O[C@@H]2COP(=O)([S-])O[C@@H]3[C@H](O)[C@@H](COP([O-])(=S)O[C@H]2[C@H]1O)O[C@H]3n1cnc2c(N)ncnc21.[Na+].[Na+] (stereo partly shown); test system = non-tumor-bearing mice, blood; setting = intravenous, 1 mg/kg, toxicity study; quantity = RDW-CV; value = 12.4 ± 0.38%
SMILES = C[C@]1(CO)Cc2ncn(-c3ccc(C#N)c(Cl)c3)c2C(=O)O1; test system = human; setting = 40 mg multiple doses, fasted; quantity = subjects with drug-related dizziness; value = 0%
SMILES = CCN1[C@@H](C(=O)NC23CCC(C(=O)O)(CC2)CC3)[C@H](c2cccc(Cl)c2F)[C@]2(C(=O)Nc3cc(Cl)ccc32)C12CCCCC2; test system = advanced solid tumour patients; setting = oral, dose not given; quantity = grade ≥3 febrile neutropenia; value = 9.5%
SMILES = Cc1ccccc1C(=O)NN=Cc1ccc(O)c(Br)c1; test system = normal C3H/HeN mouse, plasma; setting = intraperitoneal, 1.6 mg/kg; how to read = baseline: intravenous 1.6 mg/kg; quantity = oral bioavailability F; value = 90.6%
SMILES = C[C@]1(O)C[C@@](N)(c2ccc(-c3nc4n(c3-c3ccccc3)COc3ccncc3-4)cc2)C1; test system = human, advanced or metastatic solid tumours; setting = 20 mg once daily, phase I dose escalation; quantity = patients with Anemia TEAE; value = 50%
SMILES = CC[C@H](C)[C@H](NC(=O)[C@H](Cc1ccccc1)NC(=O)[C@H](CCC(=O)O)NC(=O)[C@H](CCCNC(=N)N)NC(=O)[C@H](C)NC(=O)[C@H](C)NC(=O)[C@H](CCC(N)=O)NC(=O)[C@H](CCC(=O)O)NC(=O)[C@H](CCC(=O)O)NC(=O)[C@H](CC(C)C)NC(=O)[C@H](Cc1ccc(O)cc1)NC(=O)[C@H](CO)NC(=O)[C@H](CO)NC(=O)[C@@H](NC(=O)[C@H](CC(=O)O)NC(=O)[C@H](CO)NC(=O)[C@@H](NC(=O)[C@H](Cc1ccccc1)NC(=O)[C@@H](NC(=O)CNC(=O)[C@H](CCC(=O)O)NC(=O)[C@H](C)NC(=O)CCc1cnc[nH]1)[C@@H](C)O)[C@@H](C)O)C(C)C)C(=O)N[C@@H](C)C(=O)N[C@@H](Cc1c[nH]c2ccccc12)C(=O)N[C@@H](CC(C)C)C(=O)N[C@H](C(=O)N[C@@H](CCCNC(=N)N)C(=O)NCC(=O)N[C@@H](CCCNC(=N)N)C(=O)N[C@@H](CCCCNC(=O)COCCOCCNC(=O)COCCOCCNC(=O)CC[C@H](NC(=O)CCCCCCCCCCCCCCCCC(=O)O)C(=O)O)C(=O)NCC(=O)NCC(=O)N[C@@H](CO)C(=O)N[C@@H](CCSC)C(=O)N[C@H](C(=O)N[C@@H](CCCCNc1c(NCCCCCN(O)C(=O)CCC(=O)NCCCCCN(O)C(=O)CCC(=O)NCCCCCN(O)C(C)=O)c(=O)c1=O)C(=O)O)C(C)C)C(C)C [zirconium-89 labelled]; test = ex vivo gamma counting; test system = male Sprague-Dawley rats, kidney; setting = intravenous, 1 nmol, 24 h, mean of 3 animals; quantity = tissue uptake; value = 4.79 ± 0.11 %ID/g
SMILES = CC(=O)c1c(C)c2cnc(Nc3ccc(C4CCN(CCS(C)(=O)=O)CC4)cn3)nc2n(C2CCCC2)c1=O; test system = human, plasma; setting = oral, 50 mg twice daily, day 1, single dose, with: letrozole; quantity = half-life; value = 3.92 h
SMILES = Cc1nonc1Cn1nnc2c(N3CC[C@H](O)C3)nc(C(C)(C)C)nc21; test system = C57BL/6 mice; setting = oral, dose not given; quantity = oral bioavailability; value = 44%
SMILES = Cn1nccc1[C@]1(CNC(=O)c2ccc(F)c(F)c2-c2ccc(C(F)(F)F)cc2)NC(=O)NC1=O; test = item: CYP1A2 mRNA; test system = sandwich-cultured human hepatocytes; setting = 48 h; how to read = no induction up to value; quantity = CYP1A2 induction; value = > 61 µM
SMILES = CC(C)C[C@H](NC(=O)[C@H](CCCCN)NC(=O)OCC1c2ccccc2-c2ccccc21)C(=O)N[C@H](C(=O)N[C@@H](Cc1ccccc1)C(=O)N[C@@H](Cc1ccccc1)C(=O)N[C@@H](CCCCN)C(=O)NCC(=O)N[C@@H](Cc1ccccc1)C(=O)N[C@@H](C)C(=O)N[C@@H](Cc1c[nH]c2ccccc12)C(=O)N[C@@H](CC(N)=O)C(=O)N[C@H](C(=O)N[C@H]1CSSC[C@@H](C(=O)N[C@@H](Cc2c[nH]cn2)C(=O)N[C@@H](CCCNC(=N)N)C(=O)N[C@@H](CCCNC(=N)N)C(=O)N[C@@H](C)C(=O)N[C@@H](CC(N)=O)C(N)=O)NC(=O)[C@H](C(C)C)NC(=O)[C@H](CCCNC(=N)N)NC(=O)[C@H](C(C)C)NC(=O)CNC(=O)[C@H](CC(N)=O)NC(=O)[C@H](CCCNC(=N)N)NC(=O)[C@H](Cc2ccc(O)cc2)NC(=O)[C@H](C(C)C)NC1=O)C(C)C)C(C)C; test system = ICR mice, blood; setting = intraperitoneal, 10 mg/kg, day 5; quantity = basophils; value = 1.63 ± 0.19%
SMILES = Clc1ccc(-c2ccccc2)cc1; test system = rat Sprague-Dawley female, serum; setting = inhalation, 35 µg/rat, 24 h; quantity = serum Sodium; value = 115 ± 5 mmol/L
